Assay results collected from several papers.
Parts stem from different laboratories: compare values within a part only. Positions count from the first letter of the parent shown.

Block 1 — method: protein binding microarray; molecule type: double-stranded DNA, one strand shown; sample: in vitro; concentration: not given; reference: not given; direction: higher = stronger binding
Target: Histone acetyltransferase KAT6A, winged helix 2, GST fusion (KAT6A, Homo sapiens, UniProt Q92794, residues 85-181)
Setting: 8-mer, flanks averaged, mean of 2 arrays, mostly near background
Construct (chain): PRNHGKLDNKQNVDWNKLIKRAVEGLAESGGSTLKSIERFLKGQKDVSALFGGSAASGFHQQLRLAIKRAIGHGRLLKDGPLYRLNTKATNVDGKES
| Sequence | E-score |
| --- | --- |
| AAAAAATT | -0.0348 |
| CGCTTGCC | 0.138 |
| GCCGTTTA | 0.106 |
| ATGATGCA | 0.00685 |
| CGATCTTC | 0.0668 |
| ACCTTTGC | -0.0656 |
| GCAGTGTA | -0.00369 |
| AAATATGA | 0.0262 |
| CGGTTTTA | 0.016 |
| CTTCTAGA | 0.0246 |
| AGTCCTTC | -0.172 |
| CCTCGGCA | 0.182 |
| CAAACTAC | -0.0146 |
| ACACGGCC | 0.0285 |
| TCGTTCAA | -0.0301 |
| AGGGTAGG | -0.093 |
| ATCTTGCA | 0.172 |

Block 2 — method: DHFR PCA, deep sequencing; sample: yeast; added: (+)-ABA 58 µM; reference: wild-type fitted maximum; direction: higher = stronger binding
Target: ABI1, truncated, D143A, DHFR fusion (Arabidopsis thaliana)
Setting: methotrexate growth selection, single substitutions
Starting sequence: PYL1, truncated, DHFR fusion (Arabidopsis thaliana); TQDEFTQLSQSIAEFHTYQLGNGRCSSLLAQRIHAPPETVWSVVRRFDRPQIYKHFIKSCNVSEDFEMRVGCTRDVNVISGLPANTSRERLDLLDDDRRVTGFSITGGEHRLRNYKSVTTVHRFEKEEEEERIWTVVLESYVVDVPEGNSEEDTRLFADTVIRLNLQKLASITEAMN
| Change | relative binding score [%] |
| --- | --- |
| I105T | 48.2 |
| S140P | 12.7 |
| T119I | 66 |
| W134A | 86 |
| E147I | 79.3 |
| L166R | 4.19 |
| E67S | 83 |
| I33A | 27.4 |
| C60V | 82 |
| T173S | 83.3 |
| S26C | 85.6 |

Block 3 — method: aptamer microarray, sandwich; molecule type: DNA with 2'F-ANA; sample: in vitro; concentration: 200 nM; added: Cy3 exosite-II aptamer, 400 nM; direction: higher = stronger binding; sequence: GGTTGGTGTGGTTGG
Target: Prothrombin, mature alpha-thrombin (F2, Homo sapiens, UniProt P00734)
Setting: whole 15-mer aptamer, many near background
| Modification | mean fluorescence intensity |
| --- | --- |
| 2'F-ANA at 3 4 5 6 9 10 11 12 13 15 | 53.7 a.u. |
| 2'F-ANA at 1 2 4 5 6 9 10 14 15 | 58.2 a.u. |
| 2'F-ANA at 1 4 5 6 9 13 14 | 45.5 a.u. |
| 2'F-ANA at 3 4 7 8 9 10 12 14 15 | 206 a.u. |
| 2'F-ANA at 3 4 5 6 7 8 9 12 14 15 | 63.3 a.u. |
| 2'F-ANA at 1 3 4 5 6 8 9 10 11 12 13 | 50.1 a.u. |
| 2'F-ANA at 1 3 4 6 8 9 11 15 | 158 a.u. |
| 2'F-ANA at 2 3 5 6 7 11 12 | 155 a.u. |
| 2'F-ANA at 1 4 6 8 9 10 11 13 | 111 a.u. |
| 2'F-ANA at 1 2 3 4 5 8 10 11 12 13 14 | 50.2 a.u. |
| 2'F-ANA at 1 2 3 8 12 13 14 | 105 a.u. |
| 2'F-ANA at 4 5 8 11 13 | 53.1 a.u. |

Block 4 — method: universal PBM; molecule type: double-stranded DNA, one strand shown; sample: in vitro; concentration: 600 nM; direction: higher = stronger binding
Target: Sal-like protein 4, full length isoform A (SALL4, Homo sapiens, UniProt Q9UJQ4, residues 1-1053)
Chain of UniProt Q9UJQ4 (whole entry, looked up): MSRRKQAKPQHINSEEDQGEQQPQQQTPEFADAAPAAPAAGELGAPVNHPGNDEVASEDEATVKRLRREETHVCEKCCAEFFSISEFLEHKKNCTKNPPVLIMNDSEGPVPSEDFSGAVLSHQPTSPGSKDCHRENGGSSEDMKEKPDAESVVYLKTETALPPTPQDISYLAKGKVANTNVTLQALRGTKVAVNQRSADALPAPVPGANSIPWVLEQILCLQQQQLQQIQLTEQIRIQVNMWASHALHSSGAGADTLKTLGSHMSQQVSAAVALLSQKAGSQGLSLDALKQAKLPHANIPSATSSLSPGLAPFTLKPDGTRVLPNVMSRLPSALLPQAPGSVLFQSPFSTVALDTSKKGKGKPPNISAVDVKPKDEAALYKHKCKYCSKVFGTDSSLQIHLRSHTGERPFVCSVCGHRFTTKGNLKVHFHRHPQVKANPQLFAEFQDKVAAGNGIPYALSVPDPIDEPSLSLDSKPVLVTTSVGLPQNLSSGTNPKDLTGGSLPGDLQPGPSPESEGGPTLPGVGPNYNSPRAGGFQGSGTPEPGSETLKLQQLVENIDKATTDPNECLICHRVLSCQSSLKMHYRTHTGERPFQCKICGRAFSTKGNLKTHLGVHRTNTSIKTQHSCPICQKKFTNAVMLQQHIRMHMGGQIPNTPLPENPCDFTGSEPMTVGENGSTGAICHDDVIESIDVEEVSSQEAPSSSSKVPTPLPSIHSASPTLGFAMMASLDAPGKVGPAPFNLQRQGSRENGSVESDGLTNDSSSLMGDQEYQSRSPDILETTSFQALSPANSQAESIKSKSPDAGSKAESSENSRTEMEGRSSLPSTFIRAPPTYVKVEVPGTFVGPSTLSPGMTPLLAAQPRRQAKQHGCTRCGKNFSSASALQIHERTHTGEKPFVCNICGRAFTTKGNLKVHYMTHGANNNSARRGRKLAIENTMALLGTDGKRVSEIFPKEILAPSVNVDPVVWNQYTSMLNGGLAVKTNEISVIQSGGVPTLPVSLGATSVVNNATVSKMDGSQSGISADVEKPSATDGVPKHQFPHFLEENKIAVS
Setting: 8-mer, flanks averaged, mean of replicates
| Sequence | E-score |
| --- | --- |
| AACCCTTA | 0.0762 |
| CACCGCTC | -0.293 |
| GCGTGGAC | -0.294 |
| CTCGAATC | -0.0889 |
| GCCTGATA | -0.0325 |
| AATTAATC | 0.289 |
| CTGTGGTC | -0.184 |
| CCACACCG | -0.253 |
| CCATCTAC | -0.107 |
| GAGGCTAC | -0.336 |
| AATTTCCA | 0.194 |
| TAGCCGGA | -0.243 |
| CCAAAATA | 0.348 |
| GCGATAGA | -0.0906 |
| AGCGCAGG | -0.333 |
| ACGCCACT | -0.208 |
| CGCGCGGA | -0.341 |
| ACAGATAG | 0.0772 |
| AAGACTCA | -0.0529 |
| ACCTTCTC | -0.0686 |
| CCGCGACG | -0.319 |
| GAATTACC | 0.179 |

Block 5 — method: RNA Bind-n-Seq; molecule type: RNA; sample: in vitro; concentration: not given; setting: RNA with constant flanks, ends assumed; reference: input RNA pool; direction: higher = stronger binding
Target: RING finger protein unkempt homolog, zinc fingers 1-6, GST-SBP tag (UNK, Homo sapiens, UniProt Q9C0B0, residues 30-357)
Chain of UniProt Q9C0B0 (30-357, looked up): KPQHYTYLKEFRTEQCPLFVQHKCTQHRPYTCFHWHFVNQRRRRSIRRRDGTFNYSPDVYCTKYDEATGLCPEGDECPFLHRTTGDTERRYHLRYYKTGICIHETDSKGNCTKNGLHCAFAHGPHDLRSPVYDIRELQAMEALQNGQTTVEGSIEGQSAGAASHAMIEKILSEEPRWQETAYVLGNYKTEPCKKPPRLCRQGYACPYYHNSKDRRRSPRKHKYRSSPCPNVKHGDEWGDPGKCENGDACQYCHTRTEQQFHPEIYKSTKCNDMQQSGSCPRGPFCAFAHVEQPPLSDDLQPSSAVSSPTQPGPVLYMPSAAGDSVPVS
| Sequence | bound/input enrichment [ratio] |
| --- | --- |
| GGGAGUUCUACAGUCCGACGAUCCCAGAUACAAUAGAAAGUGAACCCAGCACAGCAGAUACCGUUGUUCCAAUCACUUGUGCUACCGAUUCUACAGCUGAUCCACAGGUUAGCUUCAACUCUAAUUACAUUGAUAUAGAAAGUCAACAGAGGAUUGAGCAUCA | 0.749 |
| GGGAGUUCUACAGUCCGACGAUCAUAAUGUGUGUGGCUGGUAUUGGACUUGUUGUAUUAUUCUUCAGUUGGAUGCUCUCUAUUUUCCGAUCUAAAUAUCAUGGCUACCCAUACAGCUUUCUGAUGAGUUAAAAAGGUCCCAGACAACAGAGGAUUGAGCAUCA | 0.212 |
| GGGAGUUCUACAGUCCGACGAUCGAACCACCUUCGAAUGAAACACCUUCCUCCACAGAAACAUCUGCUAUUCCUGAGGAGGAAACCGACUGGAUAGAGAAACAUUGUGUUAAGAUAAACAACGAUCUUCUAAUUUCCAAGGUCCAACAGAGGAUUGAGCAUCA | 0.144 |
| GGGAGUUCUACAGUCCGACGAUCGUCUUCACGUGCUUCCGUUGUGCAGCUGCCUGGUGUCGGCCGGAGCAGGGCGCAGUGACCGCUUUUCAUCAUGAAUCGGAAGAAGGUGGAUAACCGAAUUCGAAUUCUCAUUGAGAAUGGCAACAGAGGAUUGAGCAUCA | 0.153 |
| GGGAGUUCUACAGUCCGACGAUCGCUGCAAAUUCCUGUGUAGUGGCAGGCCCAAGGCCUUCCCAGGGGAACCAUAGGUGGUGGCCGGUGGGACAUGUGGCCACUUGUUUUGCUUUAAAUACCUCAGUCCUUAUUCUGACAGGACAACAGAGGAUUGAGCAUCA | 0.133 |

Block 6 — target: UBE2N UBC core domain (UniProt P61088); method: yeast two-hybrid; sample: yeast; setting: mostly zero background; reference: not given; direction: higher = stronger interaction
B1: ZMYND11 RING domain (UniProt Q15326); chain DEIDWETENHDWYCFECHLPGEVLICDLCFRVYHSKCLSDEFRLRDSSSPWQCPVCRSIKKKNTNKQEM
B2: MKRN3 RING domain (UniProt Q13064); chain FAVQRGMDKVCGICMEVVYEKANPNDRRFGILSNCNHSFCIRCIRRWRSARQFENRIVKSCPQCRVTSELVIPSE
B3: MID2 RING domain (UniProt Q9UJV3); chain KMETLESELTCPICLELFEDPLLLPCAHSLCFSCAHRILVSSCSSGESIEPITAFQCPTCRYVISLNHRGL
B4: RNF6 RING domain (UniProt Q9Y252); chain NSIDSELGKICSVCISDYVTGNKLRQLPCMHEFHIHCIDRWLSENCTCPICRQPVLGSNIAN
B5: NFX1 RING domain (UniProt Q12986); chain IEQLTTEKYECMVCCELVRVTAPVWSCQSCYHVFHLNCIKKWARSPASQADGQSGWRCPACQNVSAHVPNTY
B6: BFAR RING domain (UniProt Q9NZS9); chain GPQISVSEFSCHCCYDILVNPTTLNCGHSFCRHCLALWWASSKKTECPECREKWEGFPKVS
B7: RNF182 RING domain (UniProt Q8N6D2); chain AESQASDELECKICYNRYNLKQRKPKVLECCHRVCAKCLYKIIDFGDSPQGVIVCPFCRFETCLPDDEV
B8: HLTF RING domain (UniProt Q14527); chain LILSSGSDEECAICLDSLTVPVITHCAHVFCKPCICQVIQNEQPHAKCPLCRNDIHEDNLLE
Residues (chain): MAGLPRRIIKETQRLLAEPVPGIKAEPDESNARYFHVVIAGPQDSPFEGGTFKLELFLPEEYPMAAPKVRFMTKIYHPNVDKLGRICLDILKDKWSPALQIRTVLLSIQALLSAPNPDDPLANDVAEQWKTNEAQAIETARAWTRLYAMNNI
| Sequence | lacZ reporter activity |
| --- | --- |
| B1 (ZMYND11 RING domain) | 0 |
| EIKEYKARLTCPCCNTRKKDAVLTKCFHVFCFECVRGRYEARQRKCPKCNAAFGAHDFHR (RNF40 RING domain (UniProt O75150)) | 0 |
| B2 (MKRN3 RING domain) | 0 |
| B3 (MID2 RING domain) | 7210 |
| B4 (RNF6 RING domain) | 0 |
| B5 (NFX1 RING domain) | 3040 |
| B6 (BFAR RING domain) | 0 |
| B7 (RNF182 RING domain) | 6150 |
| B8 (HLTF RING domain) | 0 |
| ASPKIFQKTKCSICNSALELPSVHFLCGHSFHQHCFESYSESDADCPTCLPENRKVMDMI (VPS11 RING domain (UniProt Q9H270)) | 0 |
| FAEQPSVKLCCQLCCSVFKDPVITTCGHTFCRRCALKSEKCPVDNVKLTVVVNNI (TRAF7 RING domain (UniProt Q6Q0C0)) | 0 |
| DDVLTKDAGECVICLEELLQGDTIARLPCLCIYHKSCIDSWFEVNRSCPEHPAD (ZNRF1 RING domain (UniProt Q8ND25)) | 12600 |

Block 7 — method: protein-binding microarray; molecule type: double-stranded DNA, one strand shown; sample: in vitro; concentration: 940 nM top; setting: 60-bp whole probe; added: salmon DNA 0.4 mg/ml; reference: random background probes; direction: higher = stronger binding; shared flanks, not repeated: GCCTAGCAC … GTCTTGATTCGCTTGACGCTGCTG
Target: Interferon regulatory factor 5, full length, phosphomimetic (IRF5, Homo sapiens, UniProt Q13568-2, residues 1-514, S451D/S453D/S456D/S462D)
| Sequence | fitted relative affinity [z-score] |
| --- | --- |
| TTAGATTTCGGGACCGGATTAGTGCTA | 0.866 |
| GACGGTATCGGGTTTCGGGTCGTGCTA | 7.32 |
| TTAGGACTGGGTATCGATTAGTGCTAG | 3.28 |
| TCAGGAGTCAACTCTCTAACTGTGCTA | -0.422 |
| GACGGACTGCTTAGCCTGACGTGCTAG | -0.68 |
| GACGGTCTCCTACTGCTGCCGTGCTAG | -0.277 |
| TCAAAGCTTCCTCTCTGACTGTGCTAG | -0.211 |
| TCATACCTCATCTTTCCCACTGTGCTA | 1.4 |
| TTTTCTCTTATTCTAACAGCGTGCTAG | 2.08 |
| TTAGATTTCGTGTTTCGATTAGTGCTA | 3.14 |
| CTATAAAGCATCAGGAAAGCGTGCTAG | -0.354 |
| TTAGGTCTCCGTCTCCTTTAGTGCTAG | 0.43 |
| TTAGGTATCGACTTTCTGTTAGTGCTA | 5.3 |
| TTAGGACTGGGGACTGGGTAAGTGCTA | -0.529 |
| TTAGGTGTCGGGTTTCGGTTAGTGCTA | 5.41 |
| GACCGACTGGGTCTCGGGACGTGCTAG | 0.085 |

Excerpt of the above (block 5):
| Sequence | bound/input enrichment [ratio] |
| --- | --- |
| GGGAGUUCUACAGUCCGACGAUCGAACCACCUUCGAAUGAAACACCUUCCUCCACAGAAACAUCUGCUAUUCCUGAGGAGGAAACCGACUGGAUAGAGAAACAUUGUGUUAAGAUAAACAACGAUCUUCUAAUUUCCAAGGUCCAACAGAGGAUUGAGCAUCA | 0.144 |
| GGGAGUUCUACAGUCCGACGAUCGUCUUCACGUGCUUCCGUUGUGCAGCUGCCUGGUGUCGGCCGGAGCAGGGCGCAGUGACCGCUUUUCAUCAUGAAUCGGAAGAAGGUGGAUAACCGAAUUCGAAUUCUCAUUGAGAAUGGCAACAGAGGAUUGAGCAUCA | 0.153 |
| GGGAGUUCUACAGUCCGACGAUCGCUGCAAAUUCCUGUGUAGUGGCAGGCCCAAGGCCUUCCCAGGGGAACCAUAGGUGGUGGCCGGUGGGACAUGUGGCCACUUGUUUUGCUUUAAAUACCUCAGUCCUUAUUCUGACAGGACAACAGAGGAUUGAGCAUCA | 0.133 |
| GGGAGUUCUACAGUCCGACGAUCAUAAUGUGUGUGGCUGGUAUUGGACUUGUUGUAUUAUUCUUCAGUUGGAUGCUCUCUAUUUUCCGAUCUAAAUAUCAUGGCUACCCAUACAGCUUUCUGAUGAGUUAAAAAGGUCCCAGACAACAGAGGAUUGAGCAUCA | 0.212 |
| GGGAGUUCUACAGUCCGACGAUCCCAGAUACAAUAGAAAGUGAACCCAGCACAGCAGAUACCGUUGUUCCAAUCACUUGUGCUACCGAUUCUACAGCUGAUCCACAGGUUAGCUUCAACUCUAAUUACAUUGAUAUAGAAAGUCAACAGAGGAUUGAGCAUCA | 0.749 |
